# Measured values from different studies.
# Each numbered part is a random draw from the data of one study; scales do not carry over between parts. Substitutions count along the parent as printed.

# Block 1
# Target: CCNB1, cyclin fold, Cln2 fusion (human)
# Method: yeast growth competition, sequencing
# Sample: yeast
# Setting: weak parent motif
# Relative to: not given
# Reading: higher = stronger binding
# Parent: CDC25A docking peptide (human); PPHRRRLLFACSP
Change,normalised enrichment score
C11V,0.687
F9M,0.953
P13Q,0.73
F9K,0.342
L8G,0.48
R5G,1.15
R4E,-0.0489
R4K,0.737
F9P,0.351
R4W,0.621
S12Q,0.122
L7R,0.38
L7G,0.52
P2T,1.11
P2Q,1.16
P13S,0.573
R4F,0.337
L8E,0.404
L7S,0.164
R4Q,0.915

# Block 2
# Target: Histone acetyltransferase KAT6A, winged helix 2, GST fusion (KAT6A, Homo sapiens, UniProt Q92794, residues 85-181)
# Method: protein binding microarray
# Molecule type: double-stranded DNA, one strand shown
# Sample: in vitro
# Tested at: not given
# Setting: 8-mer, flanks averaged, mean of 2 arrays, mostly near background
# Relative to: not given
# Reading: higher = stronger binding
# Target sequence (chain): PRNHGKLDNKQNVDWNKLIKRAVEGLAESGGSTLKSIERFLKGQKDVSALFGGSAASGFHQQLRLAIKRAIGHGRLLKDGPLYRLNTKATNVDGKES
Oligonucleotide,E-score
AATTCGAC,-0.0328
CTCCCAAA,0.0375
GAACACTA,-0.172
ACGATCTG,-0.168
AGTATCCA,0.022
GTATCTCA,-0.0341
TCGGAGCA,0.0484
CGTTAAAG,-0.0331
ACTCGAGA,-0.0281
CCATATAG,-0.135
ACTGAGAT,-0.275
CCAGCTAG,0.122
CCGAGTGA,0.144
GTGAGAAC,0.0402
AAGAAGAG,0.0998
ACACCAGT,-0.143
GAATATGC,-0.0653
GTTAGCTA,-0.105
AGAGATGG,-0.135
ATGGGAGC,-0.124
AAACTCCT,-0.113

# Block 3
# Target: ABI1, truncated, D143A, DHFR fusion (Arabidopsis thaliana)
# Method: DHFR PCA, deep sequencing
# Sample: yeast
# Setting: methotrexate growth selection, single substitutions
# With: (+)-ABA 17 µM
# Relative to: wild-type fitted maximum
# Reading: higher = stronger binding
# Parent: PYL1, truncated, DHFR fusion (Arabidopsis thaliana); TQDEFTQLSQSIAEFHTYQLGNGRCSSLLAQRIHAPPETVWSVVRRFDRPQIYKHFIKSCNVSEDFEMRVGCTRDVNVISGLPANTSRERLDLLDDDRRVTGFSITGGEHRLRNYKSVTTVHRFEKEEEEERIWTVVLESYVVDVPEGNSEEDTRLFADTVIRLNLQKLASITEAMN
Change,relative binding score
C25M,52.5%
L94S,11.9%
S11R,58.3%
G108V,-0.486%
V142S,78.8%
R74G,-1.11%
N177H,81.5%
V145E,-25.7%
F124K,43.9%
A158T,92%
Q2H,81.5%
D92G,1.37%
L8V,53.6%
F103L,8.11%
N61G,64.1%
S140E,4.02%
A30S,88.5%
F157R,3.7%
E127I,78.3%
K54A,-8.03%
S104Y,7.32%
Y53C,-7.84%

# Block 4
# Target: RNA binding protein fox-1 homolog 2, RRM domain, GST-SBP tag (RBFOX2, Homo sapiens, UniProt O43251-10, residues 100-194)
# Method: RNA Bind-n-Seq
# Molecule type: RNA
# Sample: in vitro
# Tested at: 365 nM
# Setting: natural RNA segment, single round, ends assumed
# Relative to: no-protein control
# Reading: higher = stronger binding
# Shared flanks, not repeated: GGGAGUUCUACAGUCCGACGAUC … UGGAAUUCUCGGGUGCCAA
# Residues (chain): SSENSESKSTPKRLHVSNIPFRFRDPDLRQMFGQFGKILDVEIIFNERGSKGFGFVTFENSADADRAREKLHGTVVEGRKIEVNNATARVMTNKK
Oligonucleotide,RBNS enrichment (R)
GGUCUCUGCUGGGGUGUCUGACCCUCCACCACCUCACCUUGUUGGUACCUCCCUCCCUGAAUUCCUGAGCCAGCAACUCUUACUGGCCCCUCCAUAGGGUCUUGCUGCCA,0.38
AGGAGUGUGAGAGGAUGGGGGAAGCACUGUGGGAAGACCACCAAAGAUGGCUGGACAGUGGGAGAGAGCACGUUGUGAAGCAUCCCAGCCUCGUGUUGAGGUUCCAGACU,0.969
AUGUUCCUGUCACAGCUGUCGACUACCCCACGCUGCAGGAAAUCCAUUCAGAAAUGAGCUAACAGUCUCCAGUGUAGCAGGAGAGCCAGUCACUUCCCUCCCCAGGCCCC,0.341
UAGGUUGCUUAAAAGGGACAGUAUUCUCAGUGCUCUCCUACCCCACCUCAUGCCUGGCCCCCCUCCAGGCAUGCUGGCCUCCCAAUAAAGCUGGACAAGAAGCUGCUAUG,0.415
UUGAUUUUUUUGAUGAUAGACUAUAUACACAGGCUGUUCCCGUUAUGUAAGUCAGUUCUUCAGGCUCAUUUGCUGUGCUGGUUUUACUAUUAUUUGUUUUCAAUGUAUAA,0.494
CUAUGGCUCCCUUCCCUUCUUACUGGUUCAGGGUAGCUUAUGCCUCAGGGUCAGAGCCCCUGAUCUGCUGAUGUUUGGUUGGGUGUCCAUGAGGGCCCCUCCCACCCAGU,0.298
AGAGGUCAGCCGUGUCUGCCCUGGCUCUGUCUCCUCUGUGACAGGGCAGAGCAUUUCUGGUCAGUUUCUCCAUGGUGCCUCCCACCCCUUUGUAAAGUGGAUGGACAUGA,0.307
AUUGUGGAUGCCACACAGUCCAUCUGGGGUGCCCUGUGCCUCCCAUUUUCACAGCCGCCCACUGUUGUAGAAUAAUCGCUGCCUUUACCCUCUGCAGUACCCUCAGUCAU,0.395

# Block 5
# Target: Interferon regulatory factor 7, full length, phosphomimetic (IRF7, Homo sapiens, UniProt Q92985, residues 1-503, S101K/S471D/S472D/S475D/S476D/S477D/S483D/S484D/S487D)
# Sequence of UniProt Q92985 (whole entry, unmodified, looked up): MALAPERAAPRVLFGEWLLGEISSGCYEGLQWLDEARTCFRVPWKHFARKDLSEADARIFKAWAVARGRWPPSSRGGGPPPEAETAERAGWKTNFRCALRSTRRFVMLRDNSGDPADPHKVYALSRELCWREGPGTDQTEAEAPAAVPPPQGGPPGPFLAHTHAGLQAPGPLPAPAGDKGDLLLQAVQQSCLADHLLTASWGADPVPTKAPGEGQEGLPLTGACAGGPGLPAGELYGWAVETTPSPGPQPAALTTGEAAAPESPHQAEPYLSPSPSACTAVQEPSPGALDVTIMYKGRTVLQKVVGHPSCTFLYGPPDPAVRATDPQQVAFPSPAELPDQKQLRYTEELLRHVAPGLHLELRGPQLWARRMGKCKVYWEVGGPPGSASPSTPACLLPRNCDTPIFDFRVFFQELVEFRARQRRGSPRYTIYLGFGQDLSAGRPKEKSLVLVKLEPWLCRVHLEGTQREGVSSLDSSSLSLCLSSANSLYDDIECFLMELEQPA
# Method: protein-binding microarray
# Molecule type: double-stranded DNA, one strand shown
# Sample: in vitro
# Tested at: 250 nM
# Setting: 60-bp whole probe
# With: salmon DNA 0.4 mg/ml
# Relative to: random background probes
# Reading: higher = stronger binding
# Shared flanks, not repeated: GCCTAGCAC … GTCTTGATTCGCTTGACGCTGCTG
Oligonucleotide,log fluorescence [z-score]
TTAGGACTGAGTATCGGTTAGTGCTAG,0.871
TTAGAACTGGGCTATCGATTAGTGCTA,-0.64
TACGGTATCGGACTGGGGACGTGCTAG,-0.126
TTAGAGCTGAGTTTCGATTAGTGCTAG,6.65
CTGATTTCCACTTTCTTAATGTGCTAG,2.79
TTAGATATCAGTTTAGATTAGTGCTAG,0.445
GGATTGCAACCCCTCAAAAAGTGCTAG,1.09
TTAGAACTTGGGTATCGATTAGTGCTA,0.463
GACGGACTGCTTTTCCTGTCGTGCTAG,0.502
CTAGGTATCGGTCTCGGTTAGTGCTAG,2.46
TCATGTGTATATATAATACTGTGCTAG,0.338
TTAGGTCTCCTACTGCATTAGTGCTAG,-0.0112
GACGTTCTCGGTTTCGGGACGTGCTAG,5.77
ACCTCTCACGCATCTGAAACCGTGCTA,-0.11
TCATCTTCCCCTCTCTTACTGTGCTAG,1.14
GACGGCCTGGGGTATCGGGACGTGCTA,-0.772
GACGATATCGGGTTTCGAGAGGTGCTA,1.46
TTAGGTTTCCTTCTCCTTTGGTGCTAG,2.38
ATGGCTCTCTGGACTGTGTGTGTGCTA,-0.933

# Repeated from above (block 1):
Change,normalised enrichment score
R4E,-0.0489
R4Q,0.915
L7S,0.164
R4W,0.621
F9K,0.342
L7R,0.38
L7G,0.52
P2Q,1.16
P2T,1.11
